Measured values of several laboratories.
Several values in a cell are separate wells, animals, samples, runs or records.
Organism: Staphylococcus aureus

| SMILES | assay | system | conditions | MIC |
| --- | --- | --- | --- | --- |
| COc1cc(/C=C/C(=O)NCCCCCC(=O)N[C@@H](CCCNC(=N)N)C(=O)N[C@@H](CCCNC(=N)N)C(=O)N[C@@H](Cc2c[nH]c3ccccc23)C(=O)N[C@@H](CCC(N)=O)C(=O)N[C@@H](Cc2c[nH]c3ccccc23)C(=O)N[C@@H](CCCNC(=N)N)C(N)=O)ccc1O | broth microdilution | ATCC 25923 | 24 h, 37 °C | 39 µM and 37 µM |
| CC(=O)N[C@@H](CCCNC(=N)N)C(=O)N[C@@H](Cc1c[nH]c2ccccc12)C(=O)N[C@@H](CCCNC(=N)N)C(=O)N[C@@H](Cc1c[nH]c2ccccc12)C(=O)N[C@@H](Cc1c[nH]c2ccccc12)C(=O)N[C@@H](CCCCN)C(=O)N[C@@H](Cc1ccccc1)C(=O)N[C@H](C(N)=O)C(C)C |  | MSSA ATCC 29213, Mueller-Hinton broth | overnight, 37 °C | 11.3 µM |
| CC[C@H](C)[C@H](N)C1=N[C@H](C(=O)N[C@@H](CC(C)C)C(=O)N[C@H](CCC(=O)O)C(=O)N[C@H](C(=O)N[C@H]2CCCCNC(=O)[C@H](CC(N)=O)NC(=O)[C@@H](CC(=O)O)NC(=O)[C@H](Cc3c[nH]cn3)NC(=O)[C@@H](Cc3ccc4ccccc4c3)NC(=O)[C@H]([C@@H](C)CC)NC(=O)[C@@H](CCCN)NC2=O)[C@@H](C)CC)CS1 | broth microdilution | ATCC 29213, LB medium | 18 h, 37 °C, added: ZnSO4 0.3 mM | 0.5 µg/mL |
| CN[C@@H]1[C@H](O)[C@H](NC)[C@H]2O[C@]3(O)[C@H](O[C@@H]2[C@H]1O)O[C@H](C)C[C@@]3(O)CNCc1ccc(Cl)cc1 |  | MSSA ATCC 29213 |  | 25 to 50 µg/mL |
| CC(C)C[C@H](NC(=O)[C@H](C)NC(=O)CNC(=O)[C@@H](NC(=O)[C@@H](NC(=O)[C@H](CCCCN)NC(=O)[C@H](CCCCN)NC(=O)[C@H](CC(C)C)NC(=O)[C@H](CC(C)C)NC(=O)[C@H](CCCCN)NC(=O)[C@H](CC(C)C)NC(=O)[C@H](CC(C)C)NC(=O)[C@@H](N)CCCCN)C(C)C)C(C)C)C(=O)NCC(N)=O |  | SH1000 GFP-expressing, nutrient broth | 20 h, 37 °C | 10 µM |
| CC[C@H](C)[C@H](NC(=O)[C@@H](NC(=O)CN)C(C)C)C(=O)N[C@@H](Cc1ccccc1)C(=O)N[C@@H](CC(N)=O)C(=O)N[C@@H](C)C(=O)N[C@@H](CC(C)C)C(=O)N[C@@H](CCCCN)C(=O)NCC(=O)N[C@H](C(=O)N[C@@H](C)C(=O)N[C@@H](CCCCN)C(=O)N[C@H](C(=O)N[C@H](C(=O)N[C@@H](C)C(=O)N[C@@H](C)C(=O)N[C@@H](CCC(N)=O)C(=O)N[C@@H](CC(C)C)C(=O)N[C@@H](CC(C)C)C(=O)N[C@@H](CCCCN)C(=O)N[C@@H](CCCCN)C(=O)N[C@@H](C)C(=O)N[C@@H](CCCNC(=N)N)C(=O)N[C@H]1CSSC[C@@H](C(=O)O)NC(=O)[C@H](CO)NC(=O)[C@H](CCCCN)NC(=O)[C@H](CC(=O)O)NC(=O)[C@H](CC(C)C)NC(=O)[C@H](CCCCN)NC1=O)C(C)C)[C@@H](C)O)C(C)C |  | NCTC 10788 | added: NH4Cl 6 µM | 2 µM |
| O=[N+]([O-])c1ccc2c(c1)C=[N+]1N3C(=[O+][Cu-2]1([Cl])[O]2)c1ccccc1NC3c1cc([N+](=O)[O-])ccc1O (stereo not shown) | broth microdilution | MRSA clinical isolate SA 630 | 24 h, 37 °C | 8 µg/mL |
| CC[C@H](C)[C@H](NC(=O)[C@H](CCCCN)NC(=O)[C@H](CCCCN)NC(=O)[C@H](Cc1c[nH]c2ccccc12)NC(=O)[C@H](CC(N)=O)NC(=O)[C@@H](N)C(C)C)C(=O)N[C@@H](CC(C)C)C(=O)NCC(=O)N[C@@H](CCCCN)C(=O)N[C@H](C(=O)N[C@H](C(=O)N[C@@H](CCCCN)C(=O)N[C@H](C(=O)N[C@H](C(=O)N[C@@H](CCCCN)C(N)=O)C(C)C)C(C)C)[C@@H](C)CC)[C@@H](C)CC |  | MRSA AMC 201, RPMI medium | 24 h, 37 °C | 3.7 µM |
| CC(C)C[C@@H]1NC(=O)[C@H](C)NC(=O)[C@H](C)NC(=O)[C@H](NC(=O)[C@H](CO)NC(=O)[C@@H](CCCCN)NC(=O)[C@@H](CC(C)C)NC(=O)[C@@H](N)Cc2ccccc2)[C@H](C(N)=O)OC1=O |  | MSSA ATCC 29213 | TFA salt | 4 µg/mL |
| C=Cc1cc(OC)c2c(c1)c(=O)oc1c2cc(OC)c2c(O)ccc([C@@H]3O[C@H](C)[C@H](O)[C@@](C)(O)[C@H]3O)c21 | microbial growth, broth dilution | NEWMAN |  | 0.0625 µg/mL |

Some of these lines once more:
| SMILES | assay | system | conditions | MIC |
| --- | --- | --- | --- | --- |
| C=Cc1cc(OC)c2c(c1)c(=O)oc1c2cc(OC)c2c(O)ccc([C@@H]3O[C@H](C)[C@H](O)[C@@](C)(O)[C@H]3O)c21 | microbial growth, broth dilution | NEWMAN |  | 0.0625 µg/mL |
